# Measured values gathered from unrelated publications.
# Parts stem from different laboratories: compare values within a part only.

# Block 1
# Target: Ras GTPase-activating protein-binding protein 1, C-terminal RGG region (G3BP1, Homo sapiens, UniProt Q13283)
# Chain of UniProt Q13283 (whole entry, looked up): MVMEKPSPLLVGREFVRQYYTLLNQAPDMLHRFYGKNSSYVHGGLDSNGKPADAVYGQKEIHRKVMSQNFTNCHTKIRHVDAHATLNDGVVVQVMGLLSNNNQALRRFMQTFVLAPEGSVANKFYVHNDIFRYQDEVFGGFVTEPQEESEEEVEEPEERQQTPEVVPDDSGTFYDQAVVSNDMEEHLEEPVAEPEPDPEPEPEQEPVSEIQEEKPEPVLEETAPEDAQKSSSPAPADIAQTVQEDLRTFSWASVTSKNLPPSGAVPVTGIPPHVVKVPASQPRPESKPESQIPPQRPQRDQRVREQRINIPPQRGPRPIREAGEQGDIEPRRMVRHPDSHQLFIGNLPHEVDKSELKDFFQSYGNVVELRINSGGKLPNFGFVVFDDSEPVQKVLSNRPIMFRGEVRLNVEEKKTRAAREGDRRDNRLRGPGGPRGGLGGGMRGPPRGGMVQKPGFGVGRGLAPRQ
# Technique: RNA Bind-n-Seq
# Molecule type: RNA
# Sample: in vitro
# Tested at: 1 µM
# Setting: whole 134-nt RNA, ends assumed
# Added: 150 mM KCl
# Baseline: input library
# Direction: higher = stronger binding
# All sequences stand within: GGGAGUUCUACAGUCCGACGAUC … UGGAAUUCUCGGGUGUCAAGG
Sequence,log2 enrichment
UUAAGUGUAUUGGAGCCCCAAGUUCUCAAUUAUUUGAGCCUCCGGGCGACAGAGCAAGAAAAGGUGAGUGGAUAGCGCAGGCAUAUUGGU,-0.258
AGUCCUGUGCUACACAUCGUAUGUACCGAAUCGGGUUUGGGAAAAAAAGGGUUUGGGAAAGUAUUAUGUUACGCCGUUCGGAUCUGCACU,0.898
CUGUGCUACACAUCGUAUGUACCGAAUCGGCCCCCCCGGGGCCCCCCCGGCCCCCCCGGGGAAAGUAUUAUGUUACGCCGUUCGGAUCUG,-1.82
UGAACAGCUCUGCGCUUUUUGUUACUGUGGGGAAAAAAGUUCCUUAGGACAAGGAGACUUAAAACAAUUCAGAAUAACGCCUGGAUUUAU,-1.59
ACCAUGCAGGUGGGAAACUUUGGGAAGUGGGGCAAGGGGGGGAUAGGGAGGGGGGUAACACUUUGGGAACAGGUGGUCCCAGGUCGUUUC,-0.881
AAGUCCUGUGCUACACAUCGUAUGUACCGAAUCGGUUUUUGGUUUUUGGAAAAAGGAAAGUAUUAUGUUACGCCGUUCGGAUCUGCACUU,-1.99
UCCUUUCUGUCAUUUUACACCCACAGUUGAAGAUUCCUGUCUCUGGAUCCAAAUCAGAGGGCCUUCUCUACGUCCACUCAUCCAGAGGUG,-1.8
UACAGGAGCUUCCUGGGACUGACCUGCCUGAUGCAAAUUUCUACUCGGACGGAAGACUUCAUCAUUGACACCCUCGAGCUUCGAAGUGAC,0.285
UAACUUUAGAGGAGGAUCUGAUGGAUAUGGCAGUGGACGUGGAUUUCGGGAUGGCUAUAAUGGGUAUGGAGGAGGACCUGGAGGUGGCAA,-0.677
UCGGACGCCGCCAACCUGCACGAGUUCCACGCGGACCUGCGCUCAUGCUUUGCACCCCAGCACAUGGCCAUGCUGUGUAGCCCCAUCCUC,0.818

# Block 2
# Target: RNA binding protein fox-1 homolog 2, RRM domain, GST-SBP tag (RBFOX2, Homo sapiens, UniProt O43251-10, residues 100-194)
# Technique: RNA Bind-n-Seq
# Molecule type: RNA
# Sample: in vitro
# Tested at: 365 nM
# Setting: natural RNA segment, single round, ends assumed
# Baseline: no-protein control
# Direction: higher = stronger binding
# All sequences stand within: GGGAGUUCUACAGUCCGACGAUC … UGGAAUUCUCGGGUGCCAA
# Construct (chain): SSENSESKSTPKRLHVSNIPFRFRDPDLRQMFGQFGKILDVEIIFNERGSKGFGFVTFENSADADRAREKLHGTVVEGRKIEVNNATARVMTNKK
Sequence,RBNS enrichment (R)
UGGCCACGAGCCACCACUGCCUCCCGCUGCUGCCCACAGGUGGUGCCGCCAAUGGGCAGUGCCCUCAGGCCGAAGCCUCAAUCCCCCAUCUGAGCCAGGCCUAAUCCUCU,0.234
CGCUGCUUACCGAUCCCGGGGCUUUUCCAGCCCACGGGCGCCUGACGCAGGCUGGGGCAAGUGGUGCGUGGGGCCUGGUCCCCAAGGGGCGGCUGAGAGGCCGCCACUGA,0.227
AAAAAUUUGUUUUGUAUAAAGAGGUUAGCCCUGCGCACGUAGGACUGAAUUCAGUGAUAUCCCUAUACACUGCCAUUUAGUGGAUAGGUUAUUGUACUUCCAUUCAUACU,0.289
CUUUGUCCUAAGCUCUCUCCCAGGCCACGUUGUUAUUCACUGGGCAUGGAGAGAUGGUCAUUUCGUGGUCUACUGGAUGAGGCCUAUAGUUGAGACUUGUAGACAUUUAU,0.36
GACCAUUUACUUGAUACAAAUUGUACCUUUCUGUUUUUCUAGUCAGGUUGGUGGCCUGCAGGGACGCGUACUUUGCCACCCGACCAGAGGUUCCUCGAAGAUAUUCCCAA,0.387
CUGCGGUGGGCGGGGUCUUCGACGUCUCCAACGCUGACCGCCUGGGCUUCUCAGAGGUGGAGCUGGUGCAGAUGGUGGUGGACGGAGUGAAGCUGCUCAUCGAGAUGGAG,0.793
UCAGAUGGCUUUCCAGAUGACCAGGACGAGUGGGAUAUUUUGCCCCCAACUUGGCUCGGCAUGUGAAUUCUUAGCUCUGCAAGGUGUUUAUGCCUUUGCGGGUUUCUUGA,1.8
UUGGAUGCAUUUUUCAUCAGGCUCAGUGGCUAGCAUCAGUGAACAUUCAGUUUCAGAGGGACAGUUUUGAGGAUUAAGACACUUGGAAACAGAAGAACUCUGGUAAUGCU,1.36
CCCUUCAUUUUGGGACUGAGGCUGCAGCAUUGGAACAAAAGAGCAUUAUUUCAAUUUUUCUUUCUUUUUUUUUGUUCGUUCAUUUAAACGUAUAUUUAGAACUGCACUUU,1.13
UUUGCAAUGUUUAAUUAAGUGCCCAAAGAGCACAAACAUUUUUCAACAAAUAUCUUGUGUUGUCCUUUUGUCUUCUCUGUCUCAGACUUUUGUACAUCUGGCUUAUUUUA,0.343
AUGAGAAACCAAGAAAUGCUGCUUGUGUGGUGCUCUGCUUCCUGAGGAUUUGGCUGGAAGGGGAUUCUCCGCUGGCACAUGGGAGAAGGCCAUCUUCUGUGUCGGUGCUG,0.918
CUUCUCACAUGAGGUCAACUGCUAAUGCAAUCUCUACACUUCAAAAAGCACUGAUCGUUCUCCAGUUCUUGCCAAGAUCAUCCCAAGUUGGAUAUCAUCAAAACUAUCUU,0.311

# Block 3
# Target: Sal-like protein 4, full length isoform A (SALL4, Homo sapiens, UniProt Q9UJQ4, residues 1-1053)
# Chain of UniProt Q9UJQ4 (whole entry, looked up): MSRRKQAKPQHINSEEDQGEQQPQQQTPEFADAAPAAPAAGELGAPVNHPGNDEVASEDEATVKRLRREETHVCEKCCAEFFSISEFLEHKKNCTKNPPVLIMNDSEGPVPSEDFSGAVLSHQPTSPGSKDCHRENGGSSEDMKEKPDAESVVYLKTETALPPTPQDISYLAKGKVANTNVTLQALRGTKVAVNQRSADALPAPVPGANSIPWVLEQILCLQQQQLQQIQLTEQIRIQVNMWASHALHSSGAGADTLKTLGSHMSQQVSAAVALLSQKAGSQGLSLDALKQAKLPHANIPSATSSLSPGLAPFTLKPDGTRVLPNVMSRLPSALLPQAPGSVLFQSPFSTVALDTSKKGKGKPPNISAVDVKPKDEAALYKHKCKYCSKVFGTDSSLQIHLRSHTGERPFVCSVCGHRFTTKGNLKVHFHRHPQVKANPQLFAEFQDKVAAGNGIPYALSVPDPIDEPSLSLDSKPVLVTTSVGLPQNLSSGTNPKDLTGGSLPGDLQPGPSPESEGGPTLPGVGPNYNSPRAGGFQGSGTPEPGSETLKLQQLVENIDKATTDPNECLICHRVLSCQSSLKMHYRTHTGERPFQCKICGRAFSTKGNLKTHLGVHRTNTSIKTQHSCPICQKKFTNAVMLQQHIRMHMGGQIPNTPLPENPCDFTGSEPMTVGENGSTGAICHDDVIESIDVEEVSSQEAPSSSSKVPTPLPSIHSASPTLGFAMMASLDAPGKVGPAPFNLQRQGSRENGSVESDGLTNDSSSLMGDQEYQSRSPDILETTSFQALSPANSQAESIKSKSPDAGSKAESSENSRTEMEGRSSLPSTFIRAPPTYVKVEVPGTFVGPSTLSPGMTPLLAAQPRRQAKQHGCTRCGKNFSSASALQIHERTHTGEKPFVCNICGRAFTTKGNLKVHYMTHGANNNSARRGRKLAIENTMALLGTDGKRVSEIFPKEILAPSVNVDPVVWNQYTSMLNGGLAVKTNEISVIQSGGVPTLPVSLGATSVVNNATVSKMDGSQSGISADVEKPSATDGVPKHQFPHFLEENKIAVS
# Technique: universal PBM
# Molecule type: double-stranded DNA, one strand shown
# Sample: in vitro
# Tested at: 600 nM
# Setting: 8-mer, flanks averaged, mean of replicates
# Direction: higher = stronger binding
Sequence,E-score
TACTCTAA,0.133
TATCAAGA,0.209
CGTCCGCA,-0.193
GAATGTTA,0.149
AACGGGGA,-0.152
ATCGCCGC,-0.29
TCAATCAA,0.262
GAACATCC,-0.0841
AACCCCGG,-0.375
CAGACACA,0.0201
CCCTCTCG,-0.275
GCAGTCGC,-0.23
AGTCCGAA,0.0276
AGTACTCC,-0.215
CATACACG,0.141
GGTACAAC,0.0855
GTGACAAC,-0.0252
AATAACAA,0.36
AGGTAATG,0.0344
TATGGACA,0.194
ACGATGCT,-0.197
CATCCTAG,-0.214
CTTATGTA,0.323
GCCTCTGA,-0.19
AATCGAAA,0.198

# Block 4
# Target: Protein C-ets-1 (ETS1, Homo sapiens, UniProt P14921, residues 1-441, K379A, full length assumed)
# Technique: protein-binding microarray
# Molecule type: double-stranded DNA, one strand shown
# Sample: in vitro
# Tested at: not given
# Setting: k-mer, scored over probes, only values ≥0.25
# Direction: higher = stronger binding
# Residues (chain): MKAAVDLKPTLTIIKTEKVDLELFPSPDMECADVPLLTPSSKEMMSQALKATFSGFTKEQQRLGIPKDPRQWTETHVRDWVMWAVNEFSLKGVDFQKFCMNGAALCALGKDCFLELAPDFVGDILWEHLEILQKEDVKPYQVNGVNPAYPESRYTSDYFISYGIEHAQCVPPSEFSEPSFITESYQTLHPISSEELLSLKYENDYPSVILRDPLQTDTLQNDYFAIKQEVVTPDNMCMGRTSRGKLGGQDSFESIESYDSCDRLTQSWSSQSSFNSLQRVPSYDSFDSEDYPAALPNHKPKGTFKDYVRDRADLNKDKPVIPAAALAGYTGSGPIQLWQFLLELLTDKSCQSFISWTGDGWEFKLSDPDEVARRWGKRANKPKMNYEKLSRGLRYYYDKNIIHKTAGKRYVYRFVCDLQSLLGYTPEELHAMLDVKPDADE
Sequence,E-score
ACTACCGG,0.363
ACCGGGAA,0.42
ACGTCCGG,0.301
CCGGCAAG,0.275
CACCGTCG,0.331
GAACTTCC,0.276
ATTACAGG,0.257
CCGGACCG,0.272
ACTTAGAT,0.255
GCAATACA,0.31
ACGTACTA,0.278
AATCGGTA,0.265
ACCGGGCG,0.263
TGTATCAA,0.276
ACATGTTG,0.262
CCGGTCGC,0.311
ATCGTGTC,0.285
CCGGTTTA,0.3
ATATTACA,0.302
CAATACAC,0.271
ATCACGAC,0.254
AACTTCCG,0.382
ATATGAAC,0.263
GTCGTTTA,0.277
CCGGGAAC,0.338
